Measurements collected from several papers.
Compare with care: the assays were run in different laboratories. Numbers after ± are the reported error.
CDK9 with cyclin T1: Cyclin-dependent kinase 9, with cyclin T1 (CDK9, Homo sapiens, UniProt P50750)
UniProt P50750, sequence (whole entry, looked up): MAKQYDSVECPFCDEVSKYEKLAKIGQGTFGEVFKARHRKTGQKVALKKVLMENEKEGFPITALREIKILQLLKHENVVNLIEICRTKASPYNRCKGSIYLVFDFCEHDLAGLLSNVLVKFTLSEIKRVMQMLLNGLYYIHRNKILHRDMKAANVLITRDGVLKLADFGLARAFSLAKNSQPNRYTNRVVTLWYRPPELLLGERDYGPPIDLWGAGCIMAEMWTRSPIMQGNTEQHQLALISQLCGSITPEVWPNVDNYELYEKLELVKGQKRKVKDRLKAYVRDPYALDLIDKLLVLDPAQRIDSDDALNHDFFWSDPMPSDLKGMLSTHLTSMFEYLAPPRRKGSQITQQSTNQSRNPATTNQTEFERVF
CDK9: Cyclin-dependent kinase 9 (CDK9, Homo sapiens, UniProt P50750)

Compound	target	test	system	conditions	quantity	result
COCc1cc(C(=O)Nc2cc([C@H]3CC[C@@H](OC(=O)NC(C)C)C3)[nH]n2)n(C)n1	CDK9 with cyclin T1	kinase activity, inhibitor, fluorescence			Ki	231 nM
CC[C@H](CO)Nc1nc(NCc2ccc(-c3ccccn3)cc2)c2ncn(C(C)C)c2n1	Cyclin-dependent kinase 9, with cyclin T2 (CDK9, Homo sapiens, UniProt P50750)	affinity chromatography competition	SH-SY5Y cell extract		Kd	294 nM
CC[C@@H]1[C@H](F)C(=O)N[C@@H]1COc1nccc2cc(C(N)=O)c(OC)cc12	CDK9	ATP-site probe binding, ActivX profiling	THP-1 cell lysate	Lys2 site	IC50	> 5000 nM
C[C@@]1(O)CCC[C@H]1n1c(=O)c(C(F)F)cc2cnc(NC3CCN(S(C)(=O)=O)CC3)nc21	CDK9 with cyclin T1	kinase activity, inhibitor, fluorescence			Ki	27 nM
CC(C)(C)c1cnc(CSc2cnc(NC(=O)C3CCN(C(=O)CCOCCCN4Cc5cc6c(cc5C4)C(=O)N(C4CCC(=O)NC4=O)C6=O)CC3)s2)o1 (centres unmarked)	CDK9	degrader, Western blot	TC-71		DC50	7.5 ± 2.9 nM
CN1CCC(c2c(O)cc(O)c3c(=O)cc(-c4ccccc4)oc23)C(O)C1 (centres unmarked)	CDK9 with cyclin T1	kinase activity, inhibitor		with: Cyclin T1 complex, GST-CTD substrate	IC50	9 nM
CN1CCN(c2ccc(Nc3ncc4cc(C#N)c(=O)n(C5CCCC5)c4n3)cc2)CC1	CDK9 with cyclin T1				IC50	191 nM
CC(C)(C)c1cnc(CSc2cnc(NC(=O)C3CCN(C(=O)CCCCCCCN4Cc5cc6c(cc5C4)C(=O)N(C4CCC(=O)NC4=O)C6=O)CC3)s2)o1 (centres unmarked)	CDK9	degrader, Western blot	U-87 MG glioblastoma	6 h	DC50	< 10 nM

A few entries again:
Compound	target	test	system	conditions	quantity	result
CN1CCC(c2c(O)cc(O)c3c(=O)cc(-c4ccccc4)oc23)C(O)C1 (centres unmarked)	CDK9 with cyclin T1	kinase activity, inhibitor		with: Cyclin T1 complex, GST-CTD substrate	IC50	9 nM
